Measurements of several laboratories.
Numbered parts are unrelated; each lists some results of a single study. Positions count from the first letter of the parent shown.

Block 1
Target: Ras GTPase-activating protein-binding protein 1, RRM domain (G3BP1, Homo sapiens, UniProt Q13283)
Chain of UniProt Q13283 (whole entry, looked up): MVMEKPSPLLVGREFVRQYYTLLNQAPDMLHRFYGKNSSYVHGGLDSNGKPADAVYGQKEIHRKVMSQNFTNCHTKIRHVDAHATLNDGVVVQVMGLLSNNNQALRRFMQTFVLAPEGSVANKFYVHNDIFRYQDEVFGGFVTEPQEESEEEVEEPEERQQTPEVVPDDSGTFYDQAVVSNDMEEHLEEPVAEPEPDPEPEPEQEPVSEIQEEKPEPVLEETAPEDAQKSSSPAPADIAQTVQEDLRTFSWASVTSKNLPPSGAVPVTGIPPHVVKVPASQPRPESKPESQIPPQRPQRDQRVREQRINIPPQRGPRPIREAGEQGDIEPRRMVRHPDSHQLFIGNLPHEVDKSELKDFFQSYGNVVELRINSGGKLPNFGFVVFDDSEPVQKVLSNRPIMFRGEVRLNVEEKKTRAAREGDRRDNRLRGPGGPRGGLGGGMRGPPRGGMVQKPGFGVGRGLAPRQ
Technique: RNA Bind-n-Seq
Form: RNA
Sample: in vitro
Concentration: 1 µM
Notes: whole 134-nt RNA, ends assumed
Together with: 150 mM KCl
Baseline: input library
Reading: higher = stronger binding
All sequences stand within: GGGAGUUCUACAGUCCGACGAUC … UGGAAUUCUCGGGUGUCAAGG
| Strand | log2 enrichment |
| --- | --- |
| AAGUCCUGUGCUACACAUCGUAUGUACCGAAUCGUGUGUGUGUGUGUGUGUGUGUGUAAAGUAUUAUGUUACGCCGUUCGGAUCUGCACU | 0.0114 |
| GUCCUGUGCUACACAUCGUAUGUACCGAAUCGGGAAAGGGUUUUUGGGAAAAAAAGGGAAAGUAUUAUGUUACGCCGUUCGGAUCUGCAC | 0.184 |
| CUGUGCUACACAUCGUAUGUACCGAAUCGGCCCCCCCGGGGCCCCCCCGGGCCCCCCCGGGAAAGUAUUAUGUUACGCCGUUCGGAUCUG | -0.544 |
| AGUCCUGUGCUACACAUCGUAUGUACCGAAUCGGGAAAAAAAGGGUUUGGGUUUGGGAAAGUAUUAUGUUACGCCGUUCGGAUCUGCACU | 0.402 |
| GCAGGAAGUAAAAACAAAUGGAAAUGCUUCGGAUAGUGGCAGGGGUGGGGGUUGCUAAGGAAAGGGUGGGAUGGGAGUGGGUAAAGAGGU | 1.01 |
| ACCAUGCAGGCGGGCAUCUUUGGGAAGUGGGGCAAGGGGGGGAUAGGGAGGGGGGUAACACUUUGGGAACAGGUGGUCCCAGGUCGUUUC | -0.543 |
| CAAGUCCUGUGCUACACAUCGUAUGUACCGAAUCGGUUUGGGGUUUGGGGUUUGGGAAAGUAUUAUGUUACGCCGUUCGGAUCUGCACUU | -0.248 |
| GCAGGAAGUAAAAACAAAUGGAAAUGCUUCGGAUAGUGGCAGGGGUGGGGGUUGCUAAGGAAAGGGUGGGAUGGGAGUGGGUAAAGAGAU | 1.02 |
| UUUGCAGGGAGUGGUACGGGUAUCACUUUCCGGAGCUGGUGAAGAUCAUCAACGACAAUGCCACAUACUGCCGUCUUGCCCAGUUUAUUG | -0.145 |
| UCCUGUGCUACACAUCGUAUGUACCGAAUCGGGGUUUUUGGGGAAAGGGGUUUUUGGGGAAAGUAUUAUGUUACGCCGUUCGGAUCUGCA | 1.14 |
| GCAGGAAGUAAAAACAAAUGGAAAUGCUUCGGAUAGUGGCAGGGGUGGGGGUUGCUAAGGUAAGGGUGGGAUGGGAGUGGGUAAAGAGUU | 1.24 |
| UAACUUUAGAGGAGGAUCUGAUGGAUAUGGCAGUGGACGUGGAUUUGGGGAUGGCUAUAAUGGGUAUGGAGGAGGACCUGGCGGUGGCAA | -0.345 |
| UUCUCCUGCCCCGAAGCUCGCUGUGCGUGUGCGUGUGUGUGUCCCUCCGCCAACGCCGCCACCUCAGCCCGGCAAAUGAACUCCGUCCGA | -0.175 |
| UCCUCAAGUCCUGUGCUACACAUCGUAUGUACCGAAUCGGUGGGUGGGUGGGAAAGUAUUAUGUUACGCCGUUCGGAUCUGCACUUCCAG | 0.373 |

Block 2
Target: CCNE2, cyclin fold, Cln2 fusion (human)
Technique: yeast growth competition, sequencing
Sample: yeast
Notes: weak parent motif
Baseline: not given
Reading: higher = stronger binding
Starting sequence: SLBP docking peptide (human); ARYKRKLLINDFG; partner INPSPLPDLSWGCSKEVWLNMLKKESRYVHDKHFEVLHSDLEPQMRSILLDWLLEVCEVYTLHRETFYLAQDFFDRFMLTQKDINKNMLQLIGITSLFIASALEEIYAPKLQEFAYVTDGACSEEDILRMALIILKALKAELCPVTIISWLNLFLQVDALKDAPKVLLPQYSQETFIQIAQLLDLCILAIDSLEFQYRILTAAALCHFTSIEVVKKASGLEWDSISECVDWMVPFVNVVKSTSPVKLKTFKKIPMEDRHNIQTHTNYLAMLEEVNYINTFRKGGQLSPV
| Change | normalised enrichment score |
| --- | --- |
| G13M | 1.04 |
| A1Q | -0.348 |
| L8G | 0.777 |
| L8N | 1.28 |
| G13S | -0.22 |
| R5L | 0.932 |
| I9H | 0.617 |
| L7M | 0.978 |
| R2I | 1.28 |
| I9P | 1.19 |
| Y3Q | -0.234 |
| L7H | 0.337 |
| I9R | 0.653 |
| R5M | 1.49 |
| F12K | 0.793 |
| F12A | 0.588 |
| L7Q | 0.3 |

Block 3
Target: RNA binding protein fox-1 homolog 2, RRM domain, GST-SBP tag (RBFOX2, Homo sapiens, UniProt O43251-10, residues 100-194)
Technique: RNA Bind-n-Seq
Form: RNA
Sample: in vitro
Concentration: 365 nM
Notes: natural RNA segment, single round, ends assumed
Baseline: no-protein control
Reading: higher = stronger binding
All sequences stand within: GGGAGUUCUACAGUCCGACGAUC … UGGAAUUCUCGGGUGCCAA
Target sequence (chain): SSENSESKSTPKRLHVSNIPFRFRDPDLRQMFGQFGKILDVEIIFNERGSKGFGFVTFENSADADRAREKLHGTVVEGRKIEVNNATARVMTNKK
| Strand | RBNS enrichment (R) |
| --- | --- |
| UGGUGGACCGUGGAGUGCAGAGGUUUAGGGAGAUCCUGCCAUUGCUCACACAAGAAGACAGAGCCGGAAACAUGCAGGGUCAGACCAGUGUUCCUACAGUGAGCCCCAGA | 0.467 |
| AAUCUAGGGAGGGCGGGGUGAAGUGCUGAAAGCUCACACUGAAGUGUGUUUGUAGGAGAUUCAUAAAACUAAGUUUUUAAAUGGUUCAUUCCUUUAUGGGAGCGUCUGCG | 0.497 |
| AUCUUCAAUAUGAAGACAUGAGCUUUUCUCGCAGGAAAUUUUCUUUUUCACAGAACUGGUGUCAGGAAUCACUGAAGGGCUAACCGUGAUAGUCCUUGCAAGUAAGUCAA | 0.353 |
| CUUUCCUGCACUUAUGGAAAUGCUUUGUCUUUCCCAAUGAAACUGAUGUUUGCUUGUCUGCUUUCUCUUUAUAGUACAUGAACAGUUCAGCCUUAGACUAUGUAACUGUU | 1.01 |
| AGAGUCCUUUCUCAGACAACUGAGGGAGUGUUUGGGGUGAUAUCCCAGAGACCUGGAGUUCCAGUGACUCAUAGAUACUCAGCUGAGGUAGCCAAGAAGGUGGCAGGCAG | 0.381 |
| AACUCAAAUACUACUUUUCAAAAGAGACCGAAGGAAGAGGAAUGGGAUCCAGAAUAUACCCCAAAGAGCAAGAAGUACUUCUUGCAUGACGACAGAGAUGAUGGUGUGGA | 0.813 |
| CUGAGUCCUGACAAUUGUAUCCCGGUUCCCCAGGGGACAGUCUGGGUCCCUCUCUGGUCUGACGCUCCCUAUAGGUUCCACCGCACGACAGCCUGUCCAUCAAAACUUGU | 2.86 |
| UAUGGUUUGUCUUAUGCUGCAUAGACUAUUCACCUCCUAACUUGAAGGUCUAAUCAUAAGACAAUUGUUUUUUUGUGCAUAGUUUUCAUCUAAAAUUAAGUUUACCAAAG | 0.79 |
| AUGUAUUUCUUGUCUACUAAGGAUUGCCAAGCUUUGUUUUGAAUUUCUGUAUUGGUCUCUAGGUGUAGCCUUUACUUCCUUUACUGUUGGCGUGUUAUGCUCCCAGUUCC | 1.03 |
| UCCAGGGCUGCCCCUUCCGUUAUCCACCUCAUGAAUCACUGGCUGCAAUAAACAUCGAAGCACAGGAGCCUGUUUCCAGUGAGAGCUUUGCACAGGGCUCUUACCUUUGG | 0.465 |
| ACUAACAUUUCCAAUAUCUGUAAGAUACCAAAGGACUGAGACUAACUGAUCUUUUAAUGGAAUUUCUUUGAAAUCAAAUCCAUAACUGAUUCUAUUAAGAUACAAUAGCU | 0.227 |
| GUGGUUUUCAGUAUUGUGACAAUACAACGUUUUUACAAGGUUGUUUUCUACCACCAUAUUUUAAAGAUAUUUUUAUGACCGUGUAUACUCACACUUUGCUUGUAUUUUAA | 1.58 |

Block 4
Target: Interferon regulatory factor 7, full length, phosphomimetic (IRF7, Homo sapiens, UniProt Q92985, residues 1-503, S101K/S471D/S472D/S475D/S476D/S477D/S483D/S484D/S487D)
Chain of UniProt Q92985 (whole entry, unmodified, looked up): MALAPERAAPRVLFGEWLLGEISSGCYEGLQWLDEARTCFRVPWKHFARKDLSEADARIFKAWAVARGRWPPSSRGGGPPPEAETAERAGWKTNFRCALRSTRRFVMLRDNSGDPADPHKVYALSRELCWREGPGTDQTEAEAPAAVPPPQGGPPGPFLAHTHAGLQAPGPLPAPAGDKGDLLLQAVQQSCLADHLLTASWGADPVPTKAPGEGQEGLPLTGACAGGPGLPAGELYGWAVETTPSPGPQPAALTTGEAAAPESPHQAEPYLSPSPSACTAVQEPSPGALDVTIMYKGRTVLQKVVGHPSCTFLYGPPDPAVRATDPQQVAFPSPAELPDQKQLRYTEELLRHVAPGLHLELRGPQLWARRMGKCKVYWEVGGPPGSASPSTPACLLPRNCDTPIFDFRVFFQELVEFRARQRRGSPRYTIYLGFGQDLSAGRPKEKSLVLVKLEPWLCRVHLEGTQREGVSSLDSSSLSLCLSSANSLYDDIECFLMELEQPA
Technique: protein-binding microarray
Form: double-stranded DNA, one strand shown
Sample: in vitro
Concentration: 250 nM
Notes: 60-bp whole probe
Together with: salmon DNA 0.4 mg/ml
Baseline: random background probes
Reading: higher = stronger binding
All sequences stand within: GCCTAGCAC … GTCTTGATTCGCTTGACGCTGCTG
| Strand | log fluorescence [z-score] |
| --- | --- |
| GACGGGATCGGTTTCGGGACGTGCTAG | 5.17 |
| TTAGATATCCGTTTCGATTAGTGCTAG | 3.55 |
| TTAGGTTTCCTTCTCCTTTAGTGCTAG | 2.72 |
| TTAGGTTTCGGTATCGGTCAGTGCTAG | 10.3 |
| GACGAACTGAATCTCGAGACGTGCTAG | 0.468 |
| GACGAACTGGACTTTCGGGACGTGCTA | -0.167 |
| TTAGGTCTGGGGTTTCGGTTAGTGCTA | 4.62 |
| CACTCTCTGGGCTGTGGGTTTGTGCTA | 0.455 |
| TTAGGTTTCGGACTGGGTTGGTGCTAG | 3.58 |
| TTAGGTTTCCTTATACTTTAGTGCTAG | 2.31 |
| TTAGATTTCGGGAATGGATTAGTGCTA | 0.619 |
| GACGGTTTCGGCTTCGGGACGTGCTAG | 6.28 |
| TTAAGTTTCGGGACTGGGTTAGTGCTA | 4.45 |
| GACGGACTGGGGTATCAGGACGTGCTA | -0.665 |
| GACAGTTTCGGGACTGGGGACGTGCTA | 3.53 |
| TTAGATCTCAGTCTCGAATAGTGCTAG | 0.661 |
| CAAAAATGATTGGTTGAACAGTGCTAG | -0.401 |
| TCATAAATCTTTGTTGGAACTGTGCTA | -0.167 |
| TCATGTCTCTGTCCCTGACTGTGCTAG | 0.186 |
| GACGATTTCAGTCTCGATACGTGCTAG | 1.11 |
| GACGGTATGCTTCTCCTGACGTGCTAG | -0.602 |
| GACGATATCGGTACTGGAGACGTGCTA | -0.129 |
| CCGCCGCCTGGCTGGGGGATGTGCTAG | -0.359 |
| TTGGTTTCTGGTTTATTGAGGTGCTAG | 6.88 |
| GACGGTATCGGGACTTGGGACGTGCTA | -0.239 |

Block 5
Target: Histone acetyltransferase KAT6A, winged helix 2, GST fusion (KAT6A, Homo sapiens, UniProt Q92794, residues 85-181)
Technique: protein binding microarray
Form: double-stranded DNA, one strand shown
Sample: in vitro
Concentration: not given
Notes: 8-mer, flanks averaged, mean of 2 arrays, mostly near background
Baseline: not given
Reading: higher = stronger binding
Target sequence (chain): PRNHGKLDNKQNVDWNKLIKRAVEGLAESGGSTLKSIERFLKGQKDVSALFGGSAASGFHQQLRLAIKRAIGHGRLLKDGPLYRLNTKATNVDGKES
| Strand | E-score |
| --- | --- |
| CGTCTATA | -0.156 |
| GGGTTCGA | 0.0676 |
| ATATCGGC | 0.124 |
| CCACAGTC | -0.112 |
| GGCTCACA | -0.0824 |
| CAAGGACA | -0.00309 |
| CAGCGCGC | 0.125 |
| ATACTTGC | -0.162 |
| ACAAGAAA | 0.074 |
| ACCGTAGC | -0.222 |
| GGATGTAA | 0.0692 |
| GGGCAGCA | 0.0384 |
| TCCAGACA | -0.0496 |
| TGCGAGAA | -0.0267 |
| AGCACTAG | -0.00733 |
| AGTTCAGA | 0.0556 |
| CCGTGCGC | 0.0698 |
| CAATGTTA | -0.0352 |
| CACCCGAA | 0.283 |
| AAAACCTT | 0.0554 |
| ACAGAACG | -0.0386 |
| AGAGTATG | -0.096 |
| TAGTGCGA | 0.052 |
| ATCGCGAT | 0.0792 |

Excerpt of the above (block 2):
| Change | normalised enrichment score |
| --- | --- |
| I9H | 0.617 |
| L7M | 0.978 |
| R2I | 1.28 |
| I9P | 1.19 |
| Y3Q | -0.234 |
| L7H | 0.337 |
| I9R | 0.653 |
| R5M | 1.49 |
| F12K | 0.793 |
| F12A | 0.588 |
| L7Q | 0.3 |
